Literature values that unrelated publications cite.
± marks the error that the study gave.
Slc6a3: Sodium-dependent dopamine transporter (Slc6a3, Rattus norvegicus, UniProt P23977)

Molecule | target | assay | test system | setting | how to read | quantity | value
Cc1sc2nc(-c3ccc([N+](=O)[O-])cc3)[nH]c(=O)c2c1C | Gag-Pol polyprotein, reverse transcriptase RNase H (gag-pol, Human immunodeficiency virus 1, UniProt P03366, C879A) | – | – | p66/p51 heterodimer | reference: wild-type RT | fold resistance | ~50 fold
C[C@@H](SC(=O)CNC(=O)Cc1ccccc1)C(=O)O | D-alanyl-D-alanine carboxypeptidase (Actinomadura sp. R39, UniProt P39045) | substrate | – | pH 7.50, 25 °C | – | Km | 38.4 µM
C=CCN(CC=C)CCc1c[nH]c2ccc(OC)cc12 | OPRM1 (Homo sapiens, UniProt P35372) | – | – | – | – | Ki | > 10 µM
COC1=CC(=O)O[C@@H](CCc2ccccc2)C1 | NF-κB | reporter gene and DNA binding, inhibitor | – | together with: TNFα | – | effective concentration | 870 µM
C=C1CC[C@@H]2[C@@H](C1)c1c(OC)cc(C(C)(C)CCCCCC)cc1OC2(C)C | CNR2 (Homo sapiens, UniProt P34972) | binding affinity | – | – | reference: CB1 over CB2 | selectivity ratio | > 406
N=C(N)NCCC[C@H](N)C(=O)O | arginase Leishmania amazonensis | substrate | – | – | – | Km | 21500 ± 900 µM
LGGAKQAGDV | integrin αIIbβ3, human | PAC-1 binding inhibition | peptide | – | reference: PAC-1 over fibrinogen binding inhibition | fold loss of potency | 2.5 fold
CC(=O)SCC[N+](C)(C)C.[I-] | acetylcholinesterase (Schizaphis graminum) | substrate | purified enzyme | – | – | onset of substrate inhibition | ~20 mM
N[C@@H](CCC(=O)O)C(=O)O | glutamine synthetase human | substrate, radiometric | – | – | – | Km | 3000 ± 1200 µM
Nc1ncnc2c1nc(Br)n2C1OC2COP(O)(=S)OC2C1O (stereo not shown) | PDE6 | cyclic nucleotide hydrolysis, substrate or inhibitor, isothermal titration calorimetry | – | – | – | Km or Ki | 106 µM
tetrahydrofolate | serine hydroxymethyltransferase, Plasmodium chabaudi | substrate | – | – | – | Km | 2900 µM
CNC(=O)[C@@]12C[C@@H]1[C@@H](n1cnc3c(NCc4cccc(Cl)c4)nc(C#Cc4ccc5ccc6cccc7ccc4c5c67)nc31)[C@H](O)[C@@H]2O | ADORA3 (Homo sapiens, UniProt P0DMS8) | receptor activation, agonist | – | 10 µM | reference: NECA 10 µM maximal effect | efficacy | 77.8%
C=CCN(CC=C)CCc1c[nH]c2ccccc12 | HTR7 (Homo sapiens, UniProt P34969) | binding, [3H]LSD displacement | – | – | – | Ki | > 10 µM
N[C@@]1(c2ccccc2Cl)CCC[C@@H](O)C1=O | muscarinic receptors | binding, competitive binding screen | – | concentration not given | – | activity | inactive
O=c1c2nc(Br)n([C@@H]3O[C@@H]4CO[P@@](O)(=S)O[C@H]4[C@H]3O)c2nc2[nH]c(-c3ccccc3)cn12 | PDE1B | cyclic nucleotide hydrolysis, substrate or inhibitor, isothermal titration calorimetry | – | – | – | Km or Ki | 2.5 µM
COc1ccccc1N1CCN(CCN(C(=O)C2CCC(CF)CC2)c2ccccn2)CC1 (stereo not shown) | 5-HT1A receptor, rhesus monkey | – | rhesus monkey | 90 min | – | hippocampus to cerebellum PET ratio | 10
CC(C)(C)OC(=O)c1cc2c(cn1)[nH]c1ccccc12 | human GABAA α3β3γ2 receptor | modulator, two-electrode voltage clamp | Xenopus oocytes | saturating, together with: GABA EC50 | reference: GABA response | efficacy | 108 ± 6%
C#Cc1cccc2c1[nH]c1cnc(C(=O)OC(C)(C)C)cc12 | GABAA receptor benzodiazepine site | binding | – | – | reference: α1-containing over other subtypes | selectivity ratio | 105 fold
CCCC(C(=O)c1ccc2c(c1)OCO2)N1CCCC1 (stereo not shown) | Slc6a3 | transporter-mediated release, substrate | rat brain synaptosomes | – | – | EC50 | inactive
O=[P@]1(S)OC[C@H]2O[C@@H](n3cnc4cc(Cl)c(Cl)cc43)[C@H](O)[C@@H]2O1 | PDE4D | cyclic nucleotide hydrolysis, substrate or inhibitor, isothermal titration calorimetry | – | – | – | Km or Ki | 18.8 µM
N[C@@H](CO)C(=O)O | serine hydroxymethyltransferase (Leishmania donovani) | substrate | – | – | – | Km | 1600 µM
O=[N+]([O-])[O-].[Ag+] | carbonic anhydrase, gill | enzyme activity | rainbow trout, freshwater | 10 µg/L, 48 h | – | inhibition | 28%
O=S(=O)(O)c1cc[c]([Hg][Cl])cc1 | Gabrb1/Gabrg2/Gabra1 (Rattus norvegicus, UniProt P15431+P18508+P62813, S325C) | – | – | 5 nM to 1 µM, together with: allopregnanolone | – | GABA-induced current change | no effect
COC1C2OP(O)(=S)OCC2OC1n1c(Sc2ccc(Cl)cc2)nc2c(N)ncnc21 (stereo not shown) | PDE1B | cyclic nucleotide hydrolysis, substrate or inhibitor, isothermal titration calorimetry | – | – | – | Km or Ki | 2.02 µM
CN(C)C/C=C/C(=O)Nc1cccc(C(=O)Nc2ccc(Nc3nccc(-c4cccnc4)n3)cc2)c1 | IRAK1 kinase (via Pellino E3 ligase activity) | Pellino E3 ligase activity, inhibitor | cells | – | – | IC50 | 1 to 10 µM
O=[PH](O)O | orotidine 5'-phosphate decarboxylase wild type | EO decarboxylation, activator | – | 25 °C | – | kcat/Km/Kd | 12000 M⁻² s⁻¹
COC(=O)[C@H]1[C@@H](OC(=O)c2ccccc2)C[C@@H]2CC[C@H]1N2C | Slc6a3 | transporter-mediated release, substrate | rat brain synaptosomes | – | – | EC50 | inactive
O[C@@H]1[C@H](O)[C@@H]2C[C@@H]2[C@H]1n1cnc2c(NCCc3ccccc3)nc(C#Cc3ccccc3)nc21 | ADORA2A (Homo sapiens, UniProt P29274) | radioligand binding | – | 10 µM | – | inhibition | 22 ± 5%

For quick reference, copied from above:
Molecule | target | assay | test system | setting | how to read | quantity | value
N[C@@H](CCC(=O)O)C(=O)O | glutamine synthetase human | substrate, radiometric | – | – | – | Km | 3000 ± 1200 µM
Nc1ncnc2c1nc(Br)n2C1OC2COP(O)(=S)OC2C1O (stereo not shown) | PDE6 | cyclic nucleotide hydrolysis, substrate or inhibitor, isothermal titration calorimetry | – | – | – | Km or Ki | 106 µM
